Measured values of several laboratories.
Numbered parts are unrelated; each lists some results of a single study.

Set 1
Target: Prothrombin, mature alpha-thrombin (F2, Homo sapiens, UniProt P00734)
Technique: aptamer microarray, sandwich
Form: DNA with 2'F-ANA
Sample: in vitro
Concentration: 200 nM
Setting: whole 15-mer aptamer, many near background
Added: Cy3 exosite-II aptamer, 400 nM
Reading: higher = stronger binding
Strand: GGTTGGTGTGGTTGG
Modification | mean fluorescence intensity [a.u.]
2'F-ANA at 6 7 11 15 | 412
2'F-ANA at 1 2 4 6 11 14 15 | 47.2
2'F-ANA at 1 5 6 9 10 11 12 13 | 45.3
2'F-ANA at 8 11 | 588
2'F-ANA at 1 2 5 7 8 9 10 12 13 14 | 47
2'F-ANA at 2 5 6 7 9 10 12 | 51.7
2'F-ANA at 2 3 5 6 8 10 11 14 15 | 63.9
2'F-ANA at 1 2 3 4 7 9 10 11 15 | 58.4
2'F-ANA at 2 3 7 9 11 15 | 737
2'F-ANA at 5 9 10 11 13 14 | 44.2
2'F-ANA at 4 5 6 9 10 11 14 | 45.6
2'F-ANA at 2 3 4 5 6 8 9 11 13 | 60.5
2'F-ANA at 2 3 4 6 7 10 12 14 | 182
2'F-ANA at 2 5 7 8 11 15 | 97.9
2'F-ANA at 2 7 8 11 12 13 | 665
2'F-ANA at 1 2 3 5 7 10 12 14 15 | 53.8
2'F-ANA at 1 3 4 6 8 9 10 12 13 | 95
2'F-ANA at 1 2 7 8 10 15 | 57.5

Set 2
Target: Interferon regulatory factor 5, full length, phosphomimetic (IRF5, Homo sapiens, UniProt Q13568-2, residues 1-514, K96S/S451D/S453D/S456D/S462D)
Technique: protein-binding microarray
Form: double-stranded DNA, one strand shown
Sample: in vitro
Concentration: 250 nM
Setting: 60-bp whole probe
Added: salmon DNA 0.4 mg/ml
Baseline: random background probes
Reading: higher = stronger binding
Shared flanks, not repeated: GCCTAGCAC … GTCTTGATTCGCTTGACGCTGCTG
Strand | log fluorescence [z-score]
GTAGGACTGCTTCTCCTTTAGTGCTAG | -0.354
TTAGGTCCCCTTCTCCTTTAGTGCTAG | -0.104
GACGGTATCCTTCTCTTGACGTGCTAG | 0.126
TTAGAACTGAGTTACGATTAGTGCTAG | 0.23
TTAGGCATCGGTCTCGGTTAGTGCTAG | 0.837
GACGGTCTCGGTCGCGGGACGTGCTAG | -0.0224
TCAAGTAGCTTTCTGAGACTGTGCTAG | 0.538
TTAGGCATCCTACTGCTTTAGTGCTAG | -0.527
GACGATCTCAGTTTCTAGACGTGCTAG | 0.688
GACGATTCCCTTTTCCTGACGTGCTAG | 0.124
GAAGCCAGCTCTTTCGTTACGTGCTAG | 3.98
CTAGATTTCAGTCTCGATTAGTGCTAG | 2.41
TTAGGTATCGACACTCGGTTAGTGCTA | 2.35
TTAGGTATCGAGACTGGGTTAGTGCTA | 1.9
TTAGATATCAGTATCTATTAGTGCTAG | 2.39
GCCGGACTGCTTATCCTGACGTGCTAG | -0.555
TTAGAACTGAGCTTCGATTAGTGCTAG | 0.683
TTCTGAGCCTGGGTGGATGGGTGCTAG | -0.703
GAGGAGATGAGAAACGATGAGTGCTAG | 0.0648

Set 3
Target: RNA binding protein fox-1 homolog 2, RRM domain, GST-SBP tag (RBFOX2, Homo sapiens, UniProt O43251-10, residues 100-194)
Technique: RNA Bind-n-Seq
Form: RNA
Sample: in vitro
Concentration: 365 nM
Setting: natural RNA segment, single round, ends assumed
Baseline: no-protein control
Reading: higher = stronger binding
Residues (chain): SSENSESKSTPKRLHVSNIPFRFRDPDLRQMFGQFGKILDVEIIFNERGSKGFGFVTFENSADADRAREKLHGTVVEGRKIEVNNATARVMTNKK
Strand | RBNS enrichment (R)
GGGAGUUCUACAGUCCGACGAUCGUAGUCGUAGAAAUGGAAGACGCCAGCCCUGCGCAGCCUGCAGGGACAUCCGCCAGGCUUCCCCUCAGCAGCAGGAGCCCAGGUCACCCUGGUUAAACUGCAGUGAUACAUGGAAUUCUCGGGUGCCAA | 0.203
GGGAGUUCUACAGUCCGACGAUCGAGUUCUGCAGUAUAGAACAAUUACUUGUAUGAAAUUAUACCUUUGAAUUUUAGAAUGUCAUGUGUUCUUUUAAAAAAAUUAGCUCCCCAUCCUCCCUCCUCACUCCCUCUGGAAUUCUCGGGUGCCAA | 1.12
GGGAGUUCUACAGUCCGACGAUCUCAUUCUUGCCGACUCCUCCCCCUCUGAAGCAGGUUAGCAUUGAAGGUGGUAUGGAAGCCUGCAUGCGUGUUCAACUCUGUUCCUCCUCCCUCCUCCUCGGCCUCCCUCCUGGAAUUCUCGGGUGCCAA | 2.7
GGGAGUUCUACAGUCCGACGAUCAAAGUAACUUUAAGAGAUUUUUGGAAAAGCUUUAUAUACAUUCUUUUCAAAUUUCAGUACAAAUGAAAAGUGGUUUUAAUCAGUGAUUUAGUAGACUUUGAGCAACUGUGUGGAAUUCUCGGGUGCCAA | 0.707
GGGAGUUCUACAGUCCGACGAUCCUGGGAUGUCACAGUCCAAAAGGAAAGUGCCUUUCUCCAUGGCUGGAGUAUGGAGUUUACCUUUGGAGAAGUUGUAAUGGAGCAUGCCCUGUCCCACCACUCUCAGAGAGUGGAAUUCUCGGGUGCCAA | 1.02
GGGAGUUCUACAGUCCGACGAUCGUCAUUCGCUCAUGUAAGAGUUUUUAAGAGAGGGCUGAUUAUCACAGCCCUCUUUUCUCCUGAAUUUUUAAUGCAGAAGUUUGAAUGAAGCAAGGGAAGGCAUGUAGGGAUGGAAUUCUCGGGUGCCAA | 2.44
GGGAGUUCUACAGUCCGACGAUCGGGCUCAGCCUCUCUGCCCACAGAGUGCCCCCACGUGGAACAUUCUGGAGCUGGCCAUCCCAAAUUCAAUCAGUCCAUAGAGACGAACAGAAUGAGACCUUCCGGCCCAAUGGAAUUCUCGGGUGCCAA | 0.149
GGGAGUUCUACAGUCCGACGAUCAAGCCUCUGGGUAGAAUCUGAUGUGGCCUGAAGAAACCCUGAAGGUCACUGUCACUGUGGCGGGACAGAGUGCUUCGGUAUAAGCCCGCAGGCUUCUGGUUCUUGGUUCUUGGAAUUCUCGGGUGCCAA | 0.27

Set 4
Target: Sal-like protein 4, full length isoform B (SALL4, Homo sapiens, UniProt Q9UJQ4-2, residues 1-616)
Technique: universal PBM
Form: double-stranded DNA, one strand shown
Sample: in vitro
Concentration: not given
Setting: 8-mer, flanks averaged, mean of replicates
Reading: higher = stronger binding
Target sequence (chain): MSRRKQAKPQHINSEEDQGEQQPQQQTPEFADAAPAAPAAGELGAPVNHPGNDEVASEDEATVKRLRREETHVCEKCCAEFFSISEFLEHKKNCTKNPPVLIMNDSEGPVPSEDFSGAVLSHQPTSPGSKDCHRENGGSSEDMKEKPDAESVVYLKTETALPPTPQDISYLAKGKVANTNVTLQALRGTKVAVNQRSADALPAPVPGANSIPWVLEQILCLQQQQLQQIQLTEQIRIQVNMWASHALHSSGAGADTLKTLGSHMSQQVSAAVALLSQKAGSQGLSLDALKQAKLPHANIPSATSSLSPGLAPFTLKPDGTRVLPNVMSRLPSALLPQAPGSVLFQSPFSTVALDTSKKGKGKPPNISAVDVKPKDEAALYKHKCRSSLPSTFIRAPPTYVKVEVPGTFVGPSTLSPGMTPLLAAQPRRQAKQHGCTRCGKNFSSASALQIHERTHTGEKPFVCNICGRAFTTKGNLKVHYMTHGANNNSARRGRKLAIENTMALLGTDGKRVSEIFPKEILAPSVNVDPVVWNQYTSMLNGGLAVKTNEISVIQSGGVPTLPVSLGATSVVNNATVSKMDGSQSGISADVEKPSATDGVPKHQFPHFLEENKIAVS
Strand | E-score
CGTGCTGA | 0.0103
TGCTGCCA | -0.0904
ATCGAGCG | -0.168
AGAATCAA | 0.0621
CCGGACTA | -0.203
CTGATAGA | 0.142
ACGCTATG | 0.146
CCATATCG | 0.151
TTACGCAA | 0.105
GCGGTTGA | -0.165
GCGAGAGA | -0.176
ATTCGTCG | -0.0994
CGGCGGTC | -0.356
ACTCTGCC | -0.0679
GGTCACAC | -0.24
CGCGAACG | -0.135

Excerpt of the above (set 4):
Strand | E-score
GCGAGAGA | -0.176
CCGGACTA | -0.203
CGCGAACG | -0.135
ATTCGTCG | -0.0994
